Experimental data of several laboratories.
Numbered parts are unrelated; each lists some results of a single study. Positions count from the first letter of the parent shown.

Series 1 — method: universal PBM; molecule type: double-stranded DNA, one strand shown; matrix: in vitro; tested at: 600 nM; direction: higher = stronger binding
Target: Sal-like protein 4, full length isoform A (SALL4, Homo sapiens, UniProt Q9UJQ4, residues 1-1053)
UniProt Q9UJQ4, sequence (whole entry, looked up): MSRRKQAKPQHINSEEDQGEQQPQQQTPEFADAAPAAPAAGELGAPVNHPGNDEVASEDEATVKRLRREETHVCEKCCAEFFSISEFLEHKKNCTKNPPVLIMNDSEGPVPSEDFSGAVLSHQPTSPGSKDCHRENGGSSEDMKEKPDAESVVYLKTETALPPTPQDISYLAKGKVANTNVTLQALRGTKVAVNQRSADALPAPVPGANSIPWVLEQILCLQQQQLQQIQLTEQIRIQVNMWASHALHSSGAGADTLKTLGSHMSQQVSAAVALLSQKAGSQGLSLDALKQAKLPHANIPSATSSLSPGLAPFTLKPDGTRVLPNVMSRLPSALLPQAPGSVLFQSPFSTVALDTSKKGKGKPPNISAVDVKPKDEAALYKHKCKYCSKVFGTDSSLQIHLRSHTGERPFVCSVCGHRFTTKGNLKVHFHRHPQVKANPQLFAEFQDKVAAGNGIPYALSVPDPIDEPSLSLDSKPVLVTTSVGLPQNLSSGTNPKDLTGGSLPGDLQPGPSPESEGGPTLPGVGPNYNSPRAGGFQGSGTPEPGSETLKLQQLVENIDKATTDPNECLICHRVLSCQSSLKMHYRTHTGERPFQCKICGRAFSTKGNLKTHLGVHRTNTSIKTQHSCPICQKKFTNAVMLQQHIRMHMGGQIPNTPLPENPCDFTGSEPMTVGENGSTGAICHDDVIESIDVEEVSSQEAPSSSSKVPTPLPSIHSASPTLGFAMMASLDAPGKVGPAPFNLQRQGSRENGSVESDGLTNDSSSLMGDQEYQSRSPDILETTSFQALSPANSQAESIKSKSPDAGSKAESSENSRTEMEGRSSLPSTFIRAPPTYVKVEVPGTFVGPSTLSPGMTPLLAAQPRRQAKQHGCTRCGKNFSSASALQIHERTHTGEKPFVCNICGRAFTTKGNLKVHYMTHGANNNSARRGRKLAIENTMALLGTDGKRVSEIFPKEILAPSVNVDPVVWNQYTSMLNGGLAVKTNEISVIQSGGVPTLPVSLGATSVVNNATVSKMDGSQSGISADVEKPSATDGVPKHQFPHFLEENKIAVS
Setting: 8-mer, flanks averaged, mean of replicates
Strand | E-score
AGTAAACA | 0.183
CACTAGAG | -0.00983
GTTGGCCA | -0.215
CGTTATCA | 0.262
CCCGCGAC | -0.369
ACCATTAA | 0.271
CGTTGAGC | -0.203
CGAGTCCA | -0.229
GTTCGACA | 0.00552
ATTTTCAC | 0.236
ATAGTTTA | 0.263
ATGTCACG | 0.0801
AGACCTAA | -0.0174
CGGTTGAA | 0.00669
GGACCCTA | -0.311
GACGACAA | 0.043
GACCGTGA | -0.129
CCATTTGC | 0.0697
CGTTACCA | 0.0656
CTAAAAAC | -0.114
TAGTAACA | 0.17
ACCCGTCC | -0.222
CCTTCCGC | -0.281
GCGCAGTA | -0.0637
AGCGTGTA | 0.0182

Series 2 — method: protein binding microarray; molecule type: double-stranded DNA, one strand shown; matrix: in vitro; tested at: not given; reference: not given; direction: higher = stronger binding
Target: Histone acetyltransferase KAT6A, winged helix 1, GST fusion (KAT6A, Homo sapiens, UniProt Q92794, residues 1-85)
Setting: 8-mer, flanks averaged, mean of 2 arrays, mostly near background
Target sequence (chain): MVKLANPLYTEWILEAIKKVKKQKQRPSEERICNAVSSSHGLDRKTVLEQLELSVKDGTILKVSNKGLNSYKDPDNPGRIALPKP
Strand | E-score
ATTCATGA | -0.123
CTCAAAAC | -0.164
ACCTGTCG | 0.00557
CACGGCGG | 0.434
CACCATCG | -0.123
CGGTTTTA | 0.109
CACTAGAC | 0.0213
AACCTCCA | -0.111
AACTGGAG | -0.129
GCTTGTTA | -0.0511
GGGGGTAA | -0.0998
GAAACATC | -0.0162
ACGTCCAA | -0.0437
AATCGGTA | 0.00359
CGGTGCGA | 0.196
CCGACCAA | -0.0391
CATATAGC | 0.115
ACAAGTCT | -0.126
GGTATAAC | -0.08
CGCTTGTA | 0.236
AACATGCG | 0.145
GTAGGGTA | -0.0847
AGGTCACT | -0.281
CTTACATA | -0.138
GACAGCCC | 0.14

Series 3 — method: RNA Bind-n-Seq; molecule type: RNA; matrix: in vitro; tested at: 365 nM; reference: no-protein control; direction: higher = stronger binding
Target: RNA binding protein fox-1 homolog 2, RRM domain, GST-SBP tag (RBFOX2, Homo sapiens, UniProt O43251-10, residues 100-194)
Setting: natural RNA segment, single round, ends assumed
All sequences stand within: GGGAGUUCUACAGUCCGACGAUC … UGGAAUUCUCGGGUGCCAA
Residues (chain): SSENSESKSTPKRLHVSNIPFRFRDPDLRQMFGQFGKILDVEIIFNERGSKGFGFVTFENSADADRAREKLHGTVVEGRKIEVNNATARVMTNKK
Strand | RBNS enrichment (R)
AAUGCUGCGCUCUUUGUGUUUUUCCAUCAUUAGUGCAGUUGGAAUGAAUGUGUAUAGGUCAGAGGUCUUCGUGUUCACAUUUUAAAAUUAGGUAAAUGACCUCAUCUUUC | 0.601
AUAGAAGACAUUUCCGGUUGAGAGAACAGAUUCGUUGGAAGCUUAACUUUUGUUGCCUCUUAACGCCACCAAAUUUUAGGGUAAUUUGAUUAUGAAAGAGUGAAUUUUUC | 0.505
UCCAGCCAUGUCUGACAGUGAGCAUGCUUUGGUGUGGUCUUCACUGCUUUUGGUUUUGCUUCUGAUCUUGUGUUCUAAGGUACUCAGUGAAUCCUGGAUUCUGAGUAAGU | 0.624
UUAAAAAGGCAGAACUAGGGAGGUGACUUUAGGCCUCCUGCUGUGGCCUCUGAAGAAGGUGACUCUUCAGGUAAGACUGAUGGAGGCUACACCGACAAACCGCAGACACG | 0.245
AUUUUUAUUUUUGUUCGAAGCAUGAUCUUAAAGCUAUGUUUAAGUUAAUGGAUGUAAUGCAGGGUUCCUACACUGUAUUGGCGCAUGUUGGUGGCCCUCUGUGCCCUAAG | 25.2
CCCUCUGUGCCUGUAGGAAUGCUCAGUGGAGCUGACCGAGGAAGAAAAUAAAAGAGCCAGUCAUUGAGCCUUGGUUUCUGAAUGUCUGUGAGGAUGCUGUGGGUGGGGGC | 0.917
GACUGGAAUGUGGGCAGCGCCCACACAGGCUCUGGCCCAUGGCUUCCUACUGGCAGCUCCAGGCACCCCCCUCUCACCACGCCGUUUGCUGGCUCUGACACUGUUGGGUG | 0.43
GGGGUACUGAGUUCCCUGGUCCUUUGGCUGUGUGUGCAGCGUGCAGAUUUCGGGACACCGAAACUUUUACCUCAACUUAAGGGAAUAAAAACAAACAAACAAAAAAAGAU | 0.461
UCCUCCAACUCCAAAACCCAAAGUGUCCGUGCUGUGUCCCUGUGCUUCACUGGGUUUCUCAACCGUGGCUUUUCACCGCAGCUUGUCUGAAACUCUUAGCCUGCAGAAUU | 0.873
CUGACUCUGGCUGCUGCUGAACACCGGGCCUGGACAGGUUGCUGAGGCUGGCUUUGAACUUGGGAUCCUGAGGCUUCAGACUCCCAGGUGGCUGUUUAUUCUCUCUAACC | 0.252
UCUGUGAUUGCUAAGCAGUAGCCAAAUAACCUUCCUUUGCUGUAUCUGCGUCCCUUCUGAAGGCACUUUAUGGAGGUCACAUCUGGUUUUGUUUCCAUUUUUUUUUUUUU | 1.03
AGUGAACAAACUGCAUGGCCUUGGAGAGAGACUCUGGGCUCUUGGCUCAGAUGUGUUCAUCAAAUACUCCUUUCAGAGCUGUUGUGGGUGUAAGUGACAUGAUGUGGCCA | 0.505

Series 4 — method: RNA Bind-n-Seq; molecule type: RNA; matrix: in vitro; tested at: 200 nM; setting: whole 134-nt RNA, ends assumed; added: 150 mM LiCl; reference: input library; direction: higher = stronger binding; each molecule: 7-deaza-guanosine replaces G
Target: Fragile X messenger ribonucleoprotein 1, C-terminal low-complexity region (Fmr1, Mus musculus, UniProt P35922)
All sequences stand within: GGGAGUUCUACAGUCCGACGAUC … UGGAAUUCUCGGGUGUCAAGG
Strand | log2 enrichment
UGGCCCUGGCGGCAUGCGGGGAGGAAGAGGUGGCCUCAUGGAUCGUGGUGGUCCCGGUGGAAUGUUCAGAGGUGGCCGUGGUGGAGACAG | 0.0474
UCAAGUCCUGUGCUACACAUCGUAUGUACCGAAUCGGGAAAGGGUUUGGGUGGGAAAGUAUUAUGUUACGCCGUUCGGAUCUGCACUUCC | -1.58
UAACUUUAGAGGAGGAUCUGAUGGAUAUGGUAGUGGACGUGGAUUUGGGGAUGGCUAUAAUGGGUAUGGAGGAGGACCUGGAGGUGGCAA | 0.653
GUCCUGUGCUACACAUCGUAUGUACCGAAUCGGGUUUUUGGGUUUGGGUUUUUUUGGGAAAGUAUUAUGUUACGCCGUUCGGAUCUGCAC | -1.95
CAAGUCCUGUGCUACACAUCGUAUGUACCGAAUCGGGGUUUGGGUUUGGUUUGGGAAAGUAUUAUGUUACGCCGUUCGGAUCUGCACUUC | -0.826
UGGGAGGUGGAUUUUGUUUAUUUUUUUAGCUCAUUUCCAGGGGUGGGAAUUUUUUUUUAAUAUGUGUCAUGAAUAAAGUUGUUUGUGAAA | -0.0883
UGGCACUGGUGGCAUGCGGGGAGGAAGAGGUGGCCUCAUGGAUCGUGGUGGUCCCGGUGGAAUGUUCAGAGGUGGCCGUGGUGGAGACAG | -0.347
UCAAGUCCUGUGCUACACAUCGUAUGUACCGAAUCGGAAAGGGGAAAGGAAAGGGAAAGUAUUAUGUUACGCCGUUCGGAUCUGCACUUC | -0.63
UCCUGUGCUACACAUCGUAUGUACCGAAUCGGAAAAAAGGGAAAAAAGGGGAAAAAAGGAAAGUAUUAUGUUACGCCGUUCGGAUCUGCA | -0.665
AAGUCCUGUGCUACACAUCGUAUGUACCGAAUCAAACCCAAAUUUAAACCCCCAAAAAAGUAUUAUGUUACGCCGUUCGGAUCUGCACUU | 0.956
ACCAUGCAGGUGGGCAUCUUUGGGAAGUGGGGCAAGGGGGGGAUAGGGAGGGGGGUAGCACUUUGGGAACAGGUGGUCCCAGGUCGUUUC | 1.69

Series 5 — method: competition protein-binding microarray; molecule type: double-stranded DNA, one strand shown; matrix: in vitro; tested at: 2 µM; added: Pho4 competitor, 0.05 µM; direction: higher = stronger binding; all sequences stand within: … GTCTTGATTCGCTTGACGCTGCTG
Target: Centromere-binding protein 1, full length, His-tagged (CBF1, Saccharomyces cerevisiae, UniProt P17106, residues 1-351)
UniProt P17106, sequence (whole entry, looked up): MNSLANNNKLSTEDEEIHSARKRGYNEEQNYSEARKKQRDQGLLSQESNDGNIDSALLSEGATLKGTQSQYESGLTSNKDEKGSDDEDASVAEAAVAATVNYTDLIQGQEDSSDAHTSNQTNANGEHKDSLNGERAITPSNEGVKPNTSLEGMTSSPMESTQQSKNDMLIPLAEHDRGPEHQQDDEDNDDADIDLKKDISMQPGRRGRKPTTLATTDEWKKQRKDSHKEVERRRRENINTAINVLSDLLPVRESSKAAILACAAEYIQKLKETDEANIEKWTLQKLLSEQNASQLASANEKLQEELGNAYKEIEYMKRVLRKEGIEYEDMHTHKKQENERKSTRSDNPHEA
Setting: whole 60-bp probe, lowest competitor level
Strand | fluorescence intensity
TGCGCAACAACTTGGTGCGTGGGTGTATGTCTAGAA | 71.6 a.u.
CTGAGCAAATTCTGTGACCTGCAATTTTACTTGTTC | 85.8 a.u.
CGGGGTTAAGTTTGCGGAGTGGGTGGCTTGCAGCAG | 59.1 a.u.
TTACTCAGGAGATTGCACGTTGAAGCAGTACGTTGA | 80.1 a.u.
AAGACTGTACATTCACACGGGAAACGAGAGAAAGAA | 68.3 a.u.
AACCGCATCCCGTCCCACGTGACGGACGGCACCCAA | 3150 a.u.
CGGGGTTAAGTTTTTCACGTGTTCTGCTTGCAGCAG | 816 a.u.
GTCTTGTCTCATTGTACCGTGGGTGTCCCCACTTCA | 83.6 a.u.
TATTCACAGAGTTCTCATGTGACAGGTATTGATGAT | 674 a.u.
TGCGCAACAACTTGTTGAGTGGGTGTATGTCTAGAA | 77.8 a.u.
AACCTACATTCTATTCTCGTGATGGTTCTCGTAATT | 206 a.u.
TTCAACTTGGAATCCGACGTGATGGACTCAACGCCA | 68.1 a.u.
GGGTTGGACAGGTTCAGCGTGATGGTAAGCAGCACT | 99.4 a.u.
CGATGTATTTACCATCACCTGGTGATACAGCGACGG | 169 a.u.
TGTTGAATGCTAACAGACGTGGGTAAGCCAAGACTG | 69.6 a.u.
AAAGCGGTAATTTTTCACGTGTCCTCACATATCTAT | 1480 a.u.
CGTCCTAGTGATTGTCTGGTGGGTGCCATGAGGAAG | 79 a.u.
CATACCCAACCTTGTCACAGTACTTAAGATATTTGT | 76.8 a.u.
GTTCATGGAAGTGGTGGCCTGATCCATTTGCTGGTG | 73.8 a.u.
TATTGGTTTTAGAAACACGTTTCGAATCTTCAGTAT | 147 a.u.
CTTTCCCGATCTTGCCCCGTGGGTGTAGCACATTTG | 91.9 a.u.
CATACCCAACCTTGAGTAGTGGGTGAAGATATTTGT | 63.7 a.u.
ATCTATATACATATTTATATATATTATTAGAACTTT | 95.1 a.u.
CCTAATGCTGAAAAGCCCGTGCTTTTCCATTCTGCG | 88.6 a.u.
CGTCCTAGTGATTGCCTAGTGGGTGCCATGAGGAAG | 86.9 a.u.

Series 6 — target: NFIL3, bZIP domain (human); method: DHFR protein complementation; matrix: yeast; reference: wild-type JUN-FOS pair; direction: higher = stronger binding
Setting: single substitutions, most at no-binding floor
Parent: JUN, bZIP domain (human); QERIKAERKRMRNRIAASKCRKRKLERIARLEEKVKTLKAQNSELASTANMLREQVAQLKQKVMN; partner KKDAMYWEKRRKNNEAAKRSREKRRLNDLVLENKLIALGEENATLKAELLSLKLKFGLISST
Substitution | binding fitness [natural log]
A49L | -1.39
V35K | -1.33
T37A | -1.3
I28R | -1.42
M51I | -1.66
V35N | -1.61
V35W | -1.36
A46I | -1.51
V35F | -1.36
L52S | -1.46
A29F | -1.29
A40M | -1.35
K34C | -1.4
A29E | -1.45
A57T | -1.52
L59W | -1.55
R53M | -1.47
V35Y | -1.47

Repeated from above (series 6):
Substitution | binding fitness [natural log]
V35W | -1.36
I28R | -1.42
V35K | -1.33
V35N | -1.61
A49L | -1.39
V35F | -1.36
A46I | -1.51
V35Y | -1.47
K34C | -1.4
